Published values of several laboratories.
Numbered parts are unrelated; each lists some results of a single study. Substitutions count along the parent as printed.

Block 1 — target: CCND1, cyclin fold, Cln2 fusion (human); technique: yeast growth competition, sequencing; matrix: yeast; notes: strong parent motif; reference: not given; direction: higher = stronger binding
Starting sequence: PKN2 docking peptide (human); VSAVQKLDFSDTM; partner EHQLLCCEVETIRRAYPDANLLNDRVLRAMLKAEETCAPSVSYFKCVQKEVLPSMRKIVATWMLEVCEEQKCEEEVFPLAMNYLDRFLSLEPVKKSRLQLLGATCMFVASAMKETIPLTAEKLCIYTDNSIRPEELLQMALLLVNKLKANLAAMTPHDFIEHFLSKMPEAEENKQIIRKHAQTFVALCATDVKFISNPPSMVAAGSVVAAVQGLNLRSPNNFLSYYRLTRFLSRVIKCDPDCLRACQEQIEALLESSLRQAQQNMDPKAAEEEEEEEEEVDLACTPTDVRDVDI
| Change | normalised enrichment score |
| --- | --- |
| VSAVQKLDFEDTM [S10E] | 2.67 |
| GSAVQKLDFSDTM [V1G] | 1.7 |
| VSAVQTLDFSDTM [K6T] | 1.15 |
| VSAVQKLDGSDTM [F9G] | 0.255 |
| VSACQKLDFSDTM [V4C] | 1.15 |

Block 2 — technique: protein binding microarray; form: double-stranded DNA, one strand shown; matrix: in vitro; concentration: not given; reference: not given; direction: higher = stronger binding
Target: Histone acetyltransferase KAT6A, winged helix 2, GST fusion (KAT6A, Homo sapiens, UniProt Q92794, residues 85-181)
Notes: 8-mer, flanks averaged, mean of 2 arrays, mostly near background
Residues (chain): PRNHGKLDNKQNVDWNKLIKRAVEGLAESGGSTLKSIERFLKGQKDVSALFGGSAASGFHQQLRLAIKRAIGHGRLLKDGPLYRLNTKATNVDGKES
| Sequence | E-score |
| --- | --- |
| ATACAATG | -0.0692 |
| CACACCTA | -0.211 |
| GGTAGAAA | 0.0663 |
| GAGATACA | 0.168 |
| GAGTTGTA | -0.0054 |
| ATGTCACG | -0.128 |
| AGGGGAAT | 0.0143 |

Block 3 — technique: RNA Bind-n-Seq; form: RNA; matrix: in vitro; concentration: 200 nM; notes: whole 134-nt RNA, ends assumed; added: 150 mM KCl; reference: input library; direction: higher = stronger binding
Target: Ras GTPase-activating protein-binding protein 1, full length (G3BP1, Homo sapiens, UniProt Q13283)
UniProt Q13283, sequence (whole entry, looked up): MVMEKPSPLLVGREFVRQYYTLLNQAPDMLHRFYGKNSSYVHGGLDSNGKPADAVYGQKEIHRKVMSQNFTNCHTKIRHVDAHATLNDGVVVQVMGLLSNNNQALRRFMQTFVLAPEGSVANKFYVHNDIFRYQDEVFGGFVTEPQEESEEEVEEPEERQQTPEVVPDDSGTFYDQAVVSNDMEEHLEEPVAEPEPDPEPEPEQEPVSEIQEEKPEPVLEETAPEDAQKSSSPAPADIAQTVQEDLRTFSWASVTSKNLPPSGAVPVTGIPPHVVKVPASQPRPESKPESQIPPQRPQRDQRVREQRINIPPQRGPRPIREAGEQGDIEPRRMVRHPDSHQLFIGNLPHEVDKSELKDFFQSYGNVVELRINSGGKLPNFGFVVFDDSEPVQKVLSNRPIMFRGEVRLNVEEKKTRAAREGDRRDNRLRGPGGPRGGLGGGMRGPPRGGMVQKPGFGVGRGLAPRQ
All sequences stand within: GGGAGUUCUACAGUCCGACGAUC … UGGAAUUCUCGGGUGUCAAGG
| Sequence | log2 enrichment |
| --- | --- |
| UCAAGUCCUGUGCUACACAUCGUAUGUACCGAAUCGGCCCGGCCCGGGGCCCGGAAAGUAUUAUGUUACGCCGUUCGGAUCUGCACUUCC | -0.877 |
| UAACUUUAGAGGAGGAUCUGAUGGAUAUGGCAGUGGAGGUGGAUUUGGGGAUGGCUAUAAUGGGUAUGGAGGAGGACCUGGAGGUGGCAA | 0.318 |
| GCAGGAAGUAAAAACAAAUGGAAAUGCUUCGGAUAGUGGCAGGGGUGGGGGUUGCUAAGGAAAGGGUGGGAUGGGAGUGGGUAAAGAGUG | 1.12 |
| GUCCUGUGCUACACAUCGUAUGUACCGAAUCAAACCCAAAUUUUUAAAUUUUUUUAAAAAAGUAUUAUGUUACGCCGUUCGGAUCUGCAC | -0.404 |
| CUGUGCUACACAUCGUAUGUACCGAAUCGGGGUUUUUGGGGUUUUUGGGGUUUUUUUGGGGAAAGUAUUAUGUUACGCCGUUCGGAUCUG | -0.359 |
| UAACUUUAGAGGAGGAUCUGAUGGAUAUGGCAGUGAACGUGGAUUUGGGGAUGGCUAUAAUGGGUAUGGAGGAGGACCUGGAGGUGGCAA | 0.324 |

Mixed results
| Substance | target | assay | system | conditions | scale | quantity | result |
| --- | --- | --- | --- | --- | --- | --- | --- |
| PhoQ, residues 284 288 289 292 302 303 GASLAW | PhoP, residues 12 14 15 18 19 NFCKL (Escherichia coli, UniProt P23836) | Sort-seq, refers to: YFP reporter | E. coli | PhoQ-PhoP variant library, added: 10 µM Mg2+ | reference: high Mg2+ state, higher = stronger signaling | fold induction | 4.54 |
